{"data": "Assay results collected from several papers", "note": "Each numbered part is a random draw from the data of one study; scales do not carry over between parts. Positions count from the first letter of the parent shown."}
{"data": "Block 1", "target": "Centromere-binding protein 1, full length, N-terminal tag (CBF1, Saccharomyces cerevisiae, UniProt P17106, residues 1-351)", "technique": "protein-binding microarray", "form": "double-stranded DNA, one strand shown", "sample": "in vitro", "tested at": "0.8 µM", "notes": "whole 60-bp probe, no competitor", "reading": "higher = stronger binding", "constant ends, left off below": "… GTCTTGATTCGCTTGACGCTGCTG", "chain of UniProt P17106 (whole entry, looked up)": "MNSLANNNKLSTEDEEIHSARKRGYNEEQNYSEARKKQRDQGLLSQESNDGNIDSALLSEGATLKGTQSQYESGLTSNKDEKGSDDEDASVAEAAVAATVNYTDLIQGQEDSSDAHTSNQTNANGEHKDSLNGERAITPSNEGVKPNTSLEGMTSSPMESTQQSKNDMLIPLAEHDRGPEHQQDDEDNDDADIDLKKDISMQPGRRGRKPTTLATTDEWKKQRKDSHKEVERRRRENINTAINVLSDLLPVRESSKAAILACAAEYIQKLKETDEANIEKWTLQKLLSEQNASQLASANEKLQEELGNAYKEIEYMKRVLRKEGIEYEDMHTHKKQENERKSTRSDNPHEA"}
{"Strand": "CTAGTATTTGAATGACACGTTGCCTTCATTCCTTTC", "fluorescence intensity [a.u.]": 640}
{"Strand": "GAATGAGATGTAAATTACGTGAATTCCTCCGGTTAG", "fluorescence intensity [a.u.]": 512}
{"Strand": "GAACTCCTGAGACATCAGACCAACGTGTAGAAATAG", "fluorescence intensity [a.u.]": 670}
{"Strand": "CTATCAAAATTAAATCACGCTGCAACATTGGTGTTC", "fluorescence intensity [a.u.]": 999}
{"Strand": "CTAAATATTAAAGTTCACAACGTGAACACCTTCTTC", "fluorescence intensity [a.u.]": 613}
{"Strand": "GAAATTGTATGAGGTAACATCACTTCAACGAAATAG", "fluorescence intensity [a.u.]": 540}
{"Strand": "CTACTCTCAAATTCTCACGAGATTATTTGACTTTTC", "fluorescence intensity [a.u.]": 604}
{"Strand": "GAATCCGGTGACTTTCAGGTCACGTGTTTTCCATAG", "fluorescence intensity [a.u.]": 23700}
{"Strand": "TGTACGAAGCTATACGTGATGGCTATAGTAGTTAGG", "fluorescence intensity [a.u.]": 588}
{"Strand": "CTAGGCTCTTGGCATGACGGGAGGCAGGACAGCTTC", "fluorescence intensity [a.u.]": 507}
{"Strand": "GAAAATAGACATATTCACGTGTATGCAAGGGCATAG", "fluorescence intensity [a.u.]": 2820}
{"Strand": "GAAACTATAGCTCAAAGCGTGGCTAGCCTTTGATAG", "fluorescence intensity [a.u.]": 470}
{"Strand": "CTACAGCAATTGCACCACATGCATGTCACATATTTC", "fluorescence intensity [a.u.]": 649}
{"Strand": "GAACTTCTCTGTTGTGGTGATGTCGTGATACCATAG", "fluorescence intensity [a.u.]": 1230}
{"Strand": "CTATGAAAACGCATGAACGTGCTGCTGACGTTCTTC", "fluorescence intensity [a.u.]": 675}
{"Strand": "CCTAACTACTATAAGTACATCAGATAGCTTCGTACA", "fluorescence intensity [a.u.]": 479}
{"Strand": "GAAGATATAGAAGAAAAGCTGACGAAAAAAGAATAG", "fluorescence intensity [a.u.]": 533}
{"Strand": "CTAGCCCCCAACTTGCACGTTTTGGTAGTACATTTC", "fluorescence intensity [a.u.]": 560}
{"Strand": "CTATTCTACGTTAAAATCGTGATTACTTTACGATTC", "fluorescence intensity [a.u.]": 622}
{"data": "Block 2", "target": "CCNF, cyclin fold, Cln2 fusion (human)", "technique": "yeast growth competition, sequencing", "sample": "yeast", "notes": "strong parent motif", "reference": "not given", "reading": "higher = stronger binding", "parent": "PKMYT1 docking peptide (human); SFEPRNLLSLFED"}
{"Variant": "SFEPRCLLSLFED [N6C]", "normalised enrichment score": 2.35}
{"Variant": "SFEPRNLLVLFED [S9V]", "normalised enrichment score": 1.35}
{"Variant": "SFEPANALSLFED [R5A L7A]", "normalised enrichment score": -0.826}
{"Variant": "SFEPRNLLSLTED [F11T]", "normalised enrichment score": -0.0883}
{"Variant": "SFEPRNRLSLFED [L7R]", "normalised enrichment score": -0.603}
{"Variant": "SFEPRNLQSLFED [L8Q]", "normalised enrichment score": -0.281}
{"Variant": "SFEPRNLLSLFEP [D13P]", "normalised enrichment score": 0.445}
{"Variant": "SFEPRWLLSLFED [N6W]", "normalised enrichment score": 0.432}
{"Variant": "SFEPRNLLDLFED [S9D]", "normalised enrichment score": 0.282}
{"Variant": "SFEFRNLLSLFED [P4F]", "normalised enrichment score": -0.488}
{"data": "Block 3", "target": "RNA binding protein fox-1 homolog 2, RRM domain, GST-SBP tag (RBFOX2, Homo sapiens, UniProt O43251-10, residues 100-194)", "technique": "RNA Bind-n-Seq", "form": "RNA", "sample": "in vitro", "tested at": "365 nM", "notes": "natural RNA segment, single round, ends assumed", "reference": "no-protein control", "reading": "higher = stronger binding", "constant ends, left off below": "GGGAGUUCUACAGUCCGACGAUC … UGGAAUUCUCGGGUGCCAA", "Residues (chain)": "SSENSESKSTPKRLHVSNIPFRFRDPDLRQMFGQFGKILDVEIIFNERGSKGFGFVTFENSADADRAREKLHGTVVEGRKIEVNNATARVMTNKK"}
{"Strand": "AUCACCUUGCCUUCCUCUCUAGCAUUCUGCAGGAGUGAUGCCCACGGAGCCUUGGGCUUCUGCGUGUUGCCUGACUGUACAAAAGUCUAGUCUCAAAGAUCAAGUUGGUC", "RBNS enrichment (R)": 0.549}
{"Strand": "UCUUAAAUUAUUAUAUGUUUGGACAAUUAGCAACAAGUCAGAUAGUUAGAAUCGAAGUUUUUCAAAUCCAUUGCUUAGCUAACUUUUUCAUUCUGUCACUUGGCUUCGAU", "RBNS enrichment (R)": 0.686}
{"Strand": "AGGGGUCCCAGCAGAGGCCUGUGUCGUGUAACCCAGGGACUACAAGUGUCAGUGUGGGUAUCAACCUCAAAGUCAGGCACUUGAGCCAUGUGUGGUCCUCCUCCAUCUGG", "RBNS enrichment (R)": 0.331}
{"Strand": "GUUACAUAAUCAGUAUAUUUGGUUUCUAGAUCACUGUGCUUAUUUUGUUUCAAUCUCUGACUAAAAAUACUUAAAUUUGGUUUGUUAAUUCUUAUUUUAGAAAUUAUAAU", "RBNS enrichment (R)": 0.507}
{"Strand": "ACCACUGGUUUUGUCCUGGUGUUUCCAGCACCAGAAUCCCAGCUUGGUGAGGUUUGAAGUUUCAGUGUGUCUUCUACAAAAUGACAGCCACAUCUACAUUAGCUUGAGAA", "RBNS enrichment (R)": 0.292}
{"Strand": "AGGAAGGGUCCUUGCGUUGACAGCGUGUGGCUUUGGAGUCCGUUUAUGGAAGCACUCUACAAUGAACAGUUGAAUUUUAUGUCUAUUCUUUUUUCCUAUUUUAAAAGUUC", "RBNS enrichment (R)": 1.06}
{"Strand": "CCAACCUGGGCACCGGGCUGCGGGCAGGUGUGCAUAUCAAGCUGCCCAACCUGGGCAAGCAUGAGAAGUUCUCGGAGGUGCUUAAGCGGCUGCGACUUCAGAAGCGAGGC", "RBNS enrichment (R)": 0.299}
{"Strand": "UAACUGUGUCUUAGCAAUGUUGUAUAUAGUUCUUUUAAUAUUCAUAAGGUAUAUUUUUGAAUUUUGGUAUUUGUUGAGAUUGCAUAGAAGAAUAGUAGGAAAUCCAAUGA", "RBNS enrichment (R)": 0.557}
{"data": "Block 4", "target": "ATF2, bZIP domain (human)", "technique": "DHFR protein complementation", "sample": "yeast", "notes": "single substitutions, most at no-binding floor", "reference": "wild-type JUN-FOS pair", "reading": "higher = stronger binding", "parent": "JUN, bZIP domain (human); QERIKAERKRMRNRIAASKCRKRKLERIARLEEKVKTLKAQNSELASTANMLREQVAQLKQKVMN; partner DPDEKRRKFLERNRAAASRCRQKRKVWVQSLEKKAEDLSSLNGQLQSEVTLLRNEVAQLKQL"}
{"Variant": "V56N", "binding fitness": "-1.58 natural log"}
{"Variant": "K39R", "binding fitness": "-1.33 natural log"}
{"Variant": "K36P", "binding fitness": "-1.48 natural log"}
{"Variant": "L38H", "binding fitness": "-1.49 natural log"}
{"Variant": "E44L", "binding fitness": "-1.45 natural log"}
{"Variant": "A40V", "binding fitness": "-1.43 natural log"}
{"Variant": "Q41W", "binding fitness": "-1.47 natural log"}
{"Variant": "T37G", "binding fitness": "-1.35 natural log"}
{"Variant": "A46Y", "binding fitness": "-1.37 natural log"}
{"note": "A few entries again (block 3):"}
{"Strand": "UCUUAAAUUAUUAUAUGUUUGGACAAUUAGCAACAAGUCAGAUAGUUAGAAUCGAAGUUUUUCAAAUCCAUUGCUUAGCUAACUUUUUCAUUCUGUCACUUGGCUUCGAU", "RBNS enrichment (R)": 0.686}
{"Strand": "GUUACAUAAUCAGUAUAUUUGGUUUCUAGAUCACUGUGCUUAUUUUGUUUCAAUCUCUGACUAAAAAUACUUAAAUUUGGUUUGUUAAUUCUUAUUUUAGAAAUUAUAAU", "RBNS enrichment (R)": 0.507}
{"Strand": "AGGAAGGGUCCUUGCGUUGACAGCGUGUGGCUUUGGAGUCCGUUUAUGGAAGCACUCUACAAUGAACAGUUGAAUUUUAUGUCUAUUCUUUUUUCCUAUUUUAAAAGUUC", "RBNS enrichment (R)": 1.06}
{"Strand": "UAACUGUGUCUUAGCAAUGUUGUAUAUAGUUCUUUUAAUAUUCAUAAGGUAUAUUUUUGAAUUUUGGUAUUUGUUGAGAUUGCAUAGAAGAAUAGUAGGAAAUCCAAUGA", "RBNS enrichment (R)": 0.557}
